Published values of several laboratories.
Every numbered part comes from another study and shows a few of its results, in no order. Substitutions count along the parent as printed.

Set 1
Target: Interferon regulatory factor 3, full length, phosphomimetic (IRF3, Homo sapiens, UniProt Q14653, residues 1-427, S386D/S396D/S398D/S402D/T404D/S405D)
Method: protein-binding microarray
Molecule type: double-stranded DNA, one strand shown
Matrix: in vitro
Concentration: 2540 nM top
Notes: 60-bp whole probe
With: salmon DNA 0.4 mg/ml
Baseline: random background probes
Reading: higher = stronger binding
Constant ends, left off below: GCCTAGCAC … GTCTTGATTCGCTTGACGCTGCTG
Construct (chain): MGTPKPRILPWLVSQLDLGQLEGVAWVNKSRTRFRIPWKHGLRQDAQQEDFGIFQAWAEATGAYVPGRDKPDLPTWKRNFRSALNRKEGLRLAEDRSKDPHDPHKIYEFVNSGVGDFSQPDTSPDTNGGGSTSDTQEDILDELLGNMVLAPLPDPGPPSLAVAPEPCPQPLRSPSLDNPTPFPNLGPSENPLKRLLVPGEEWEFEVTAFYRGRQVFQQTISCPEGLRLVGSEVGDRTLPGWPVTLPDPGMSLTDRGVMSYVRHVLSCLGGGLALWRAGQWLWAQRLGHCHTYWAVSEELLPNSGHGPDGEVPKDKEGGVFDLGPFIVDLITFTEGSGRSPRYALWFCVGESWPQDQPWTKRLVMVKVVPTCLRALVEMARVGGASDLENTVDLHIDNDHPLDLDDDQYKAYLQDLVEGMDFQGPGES
Sequence | fitted relative affinity [z-score]
TTAGGTCTCCTTAGCCTTTAGTGCTAG | 0.48
TTAGGTATCGACACTGCGTTAGTGCTA | 0.169
GACGGTCTCGGAATCGGGACGTGCTAG | 1.23
TCAGATATTAAACTGATACTGTGCTAG | 0.416
GACGGTGTCCTTCTCCTGACGTGCTAG | 4.06
CTTGGCTTCTCCCACAGGTGGTGCTAG | -0.664
TTAGGACTGGGTTTCCGTTAGTGCTAG | 1.62
GACGATATCGGGTATCGGGACGTGCTA | 0.539
GGTAGGCGGGGCCCCTGGCCGTGCTAG | -1.17

Set 2
Target: CCNF, cyclin fold, Cln2 fusion (human)
Method: yeast growth competition, sequencing
Matrix: yeast
Notes: strong parent motif
Baseline: not given
Reading: higher = stronger binding
Parent: MICAL3 docking peptide (human); LQLRRQLSFSEDS
Change | normalised enrichment score
Q2W | 4.36
L7W | 0.354
R4Y | 2.1
E11V | 6
Q2V | 4.49
E11F | 5.98
L7M | 0.615

Set 3
Target: RING finger protein unkempt homolog, zinc fingers 1-6, GST-SBP tag (UNK, Homo sapiens, UniProt Q9C0B0, residues 30-357)
Method: RNA Bind-n-Seq
Molecule type: RNA
Matrix: in vitro
Concentration: not given
Notes: RNA with constant flanks, human and mouse sites, ends assumed
Baseline: input RNA pool
Reading: higher = stronger binding
Constant ends, left off below: GGGAGUUCUACAGUCCGACGAUC … CAACAGAGGAUUGAGCAUCA
Residues (chain): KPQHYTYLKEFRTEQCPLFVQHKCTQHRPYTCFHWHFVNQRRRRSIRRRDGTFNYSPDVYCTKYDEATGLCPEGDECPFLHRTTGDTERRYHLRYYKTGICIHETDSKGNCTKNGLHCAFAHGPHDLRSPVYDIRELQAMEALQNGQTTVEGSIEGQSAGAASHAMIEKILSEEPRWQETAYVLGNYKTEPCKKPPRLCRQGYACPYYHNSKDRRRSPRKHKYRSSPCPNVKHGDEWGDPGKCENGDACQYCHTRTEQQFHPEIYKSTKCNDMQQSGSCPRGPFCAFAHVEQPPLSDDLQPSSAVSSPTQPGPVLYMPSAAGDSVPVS
Sequence | bound/input enrichment
GUUUCUAUUCAUCCUAAGUCUGUCAACGUGGAGCAGACAGACUUCCACUACAACUGGCUUAUCUAUCACCUGAAGAUGAGAACAAGCAGUAUAUACUUGUACGACUGUACAGAAGUGUCA | 0.267 ratio
GUUAAUUUUACCUUACUUUCAUUGUAAAUAAGCCUGUCUUCCUAUCUGGAUUUUUUGUGUGCAUACAUAUUCUACUGAUUAACUACUUUUGCAGUUUUAAUCCUGUAUUAUUUCUUCUAC | 0.252 ratio
UGCUUUCCCCUCUCUCCUGGUUGCUUCUCCCUUUUUUUUCCCUUUCCUUUUUACUUUUUUUUUUUUUUUUGCAGUGUCCCCAUUCUGAUUCUCGCUCUGUCGACGGCACUGUUGGUGCCA | 3.43 ratio
CGGAAGCACAUAGAGGAUGAAAAGCUCGUCCGCUACUUCUUGGACAAGACGCUGACUUCGAGGCUUGGAAUCCGCAUGUUGGCCACGCAUCACCUGGCGCUGCAUGAGGACAAGCCUGAC | 0.0482 ratio
CGGUGUUGGACAUAUGAAACAUCUCUGCUGGUAGAAGAGGCCAUUAGUGAGGAACUUCCCUAUAGUGAAUACUUCGAGUACUUUGCCCCAGAUUUCACACUCCAUCCAGAUGUCAGCACC | 0.495 ratio

Single results of other studies
Molecule | target | test | system | setting | scale | quantity | result
PhoQ, residues 284 288 289 292 302 303 SVTLVV | PhoP, residues 12 14 15 18 19 LHATL (Escherichia coli, UniProt P23836) | Sort-seq, refers to: YFP reporter | E. coli | PhoQ-PhoP variant library, with: 10 µM Mg2+ | baseline: high Mg2+ state, higher = stronger signaling | fold induction | 2.82

Excerpt of the above (set 1):
Sequence | fitted relative affinity [z-score]
CTTGGCTTCTCCCACAGGTGGTGCTAG | -0.664
TTAGGACTGGGTTTCCGTTAGTGCTAG | 1.62
GACGATATCGGGTATCGGGACGTGCTA | 0.539
